Experimental data from different studies.
Protocols differ between the studies behind these lines. ± marks the error that the study gave.

| Substance | assay | system | conditions | scale | measurement | value |
| --- | --- | --- | --- | --- | --- | --- |
| CN(C)C(=O)N[C@H]1CC[C@H](CCN2CCN(c3cccc(Cl)c3Cl)CC2)CC1 | open field | Sprague-Dawley rat, ouabain mania model | intraperitoneal, 0.06 mg/kg, 1 h pretreatment, 30 min observation, added: ouabain i.c.v. | – | locomotor activity | 64.2 ± 3.88 squares crossed |
| COc1ccc2c(c1)c(CC(=O)O)c(C)n2C(=O)c1ccc(Cl)cc1 | multiplex bead immunoassay, refers to: IL-15 | CD-1 mice, serum | ip, 20 mg/kg, three-injection regimen, added: LPS 3 mg/kg | – | cytokine level | 21.1 ± 12 pg/mL |
| CCCn1c(=O)n(C2CC2)c(=O)c2[nH]c(-c3ccc(N(CC)C(=O)c4cccnc4)nc3)nc21 | hyperinsulinemic-euglycemic clamp | KKA diabetic mice | oral, 20 mg/kg four times at 12 h intervals | relative to: untreated KKA mice | glucose infusion rate | increased |
| CC[C@H](C)[C@H](NC(=O)[C@H](CCC(N)=O)NC(=O)[C@H](Cc1c[nH]cn1)NC(=O)[C@H](C)NC(=O)[C@H](CC(C)C)NC(=O)[C@H](CCCCN)NC(=O)[C@H](CCC(N)=O)NC(=O)[C@@H](NC(=O)[C@@H](NC(=O)[C@@H]1CSSC[C@H](NC(=O)CNC(=O)[C@H](Cc2ccccc2)NC(=O)[C@H](CO)NC(=O)[C@H](CCCNC(=N)N)NC(=O)[C@H](CC(C)C)NC(=O)CNC(=O)[C@H](CCC(N)=O)NC(=O)[C@H](Cc2ccccc2)NC(=O)[C@H](CC(N)=O)NC(=O)[C@H](CC(N)=O)NC(=O)[C@H](CCSC)NC(=O)[C@H](CO)NC(=O)[C@H](CCC(N)=O)NC(=O)[C@H](CCCNC(=N)N)NC(=O)[C@@H](N)Cc2ccc(O)cc2)C(=O)N[C@@H](CCCNC(=N)N)C(=O)N[C@@H](Cc2ccccc2)C(=O)NCC(=O)N[C@@H]([C@@H](C)O)C(=O)N1)[C@@H](C)O)C(C)C)C(=O)N[C@@H](Cc1ccc(O)cc1)C(=O)N[C@@H](CCC(N)=O)C(=O)N[C@@H](Cc1ccccc1)C(=O)N[C@H](C(=O)N[C@@H](CC(=O)O)C(=O)N[C@@H](CCCCN)C(=O)N[C@@H](CC(=O)O)C(=O)N[C@@H](CCCCN)C(=O)N[C@@H](CC(=O)O)C(=O)N[C@@H](CC(N)=O)C(=O)N[C@H](C(=O)N[C@@H](C)C(=O)N1CCC[C@H]1C(=O)N[C@@H](CCCNC(=N)N)C(=O)N[C@@H](CO)C(=O)N[C@@H](CCCCN)C(=O)N[C@H](C(=O)N[C@@H](CO)C(=O)N1CCC[C@H]1C(=O)N[C@@H](CCC(N)=O)C(=O)NCC(=O)N[C@@H](Cc1ccc(O)cc1)C(N)=O)[C@@H](C)CC)C(C)C)[C@@H](C)O | – | patients, biologic-resistant Crohn's disease | intravenous infusion, 15 ng/kg/min, 24 weeks, unit not given, added: biologic | relative to: baseline | change in CDAI | -78 ± 26 |
| SIYNFEKL | flow cytometry, refers to: CD44hi CD8+ T cells | peptide, OT-I CD8+ T cells, mouse | dose not given, primed 5 days, TGF-β1 from day 2 onward, added: 20 ng/mL TGF-β1 | – | IFN-γ+ TNF-α+ cells | 0.24% |
| PACAP | qRT-PCR, GAPDH-normalised, refers to: Bcl-2 | APP V717I transgenic mouse, 6 months old, brain | intranasal, dose not given, 3 months | relative to: vehicle-treated mice | mRNA level | 125 ± 4.7% |
| Cc1ccc(NC(=O)c2ccc(CN3CCN(C)CC3)cc2)cc1Nc1nccc(-c2cncc(-c3oncc3C)c2)n1 | – | mild-to-moderate Parkinson's disease patients | oral, 100 mg once daily, pre-dose baseline, on anti-Parkinson medication | direction not given | PGI-S score | 2 ± 0.7 |
| C[C@H]1C[C@H]2CSC(N)=N[C@@]2(c2nc(NC(=O)c3ccc(OC(F)F)cn3)cs2)CO1 | refers to: CSF Aβx-40 | healthy adults | 50 mg once daily, 14 days, day 15 | relative to: placebo-adjusted baseline | change from baseline | -61.5% |
| SIIVFEKL | flow cytometry, refers to: CD44hi CD8+ T cells | peptide, OT-I CD8+ T cells, mouse | dose not given, primed 5 days, restimulated 100 ng/mL OVA257, added: no TGF-β1 | – | cytokine-negative cells | 19.3% |
| COc1ccc(C2N[C@H](C(=O)O)Cc3c2[nH]c2ccccc32)cc1CN1CCN(c2ccccc2F)CC1 (some centres unmarked) | glucose-induced calcium signal | mouse, isolated pancreatic islets | 30 min preincubation, added: glucose | – | IC50 | 3000 nM |
| O=C(/C=C/c1ccc(O)c(O)c1)c1ccc(O)c(O)c1O | – | ethanol | 20 µM, 30 min | – | DPPH scavenging | > 80% |

Repeated from above:
| Substance | assay | system | conditions | scale | measurement | value |
| --- | --- | --- | --- | --- | --- | --- |
| Cc1ccc(NC(=O)c2ccc(CN3CCN(C)CC3)cc2)cc1Nc1nccc(-c2cncc(-c3oncc3C)c2)n1 | – | mild-to-moderate Parkinson's disease patients | oral, 100 mg once daily, pre-dose baseline, on anti-Parkinson medication | direction not given | PGI-S score | 2 ± 0.7 |
| CC[C@H](C)[C@H](NC(=O)[C@H](CCC(N)=O)NC(=O)[C@H](Cc1c[nH]cn1)NC(=O)[C@H](C)NC(=O)[C@H](CC(C)C)NC(=O)[C@H](CCCCN)NC(=O)[C@H](CCC(N)=O)NC(=O)[C@@H](NC(=O)[C@@H](NC(=O)[C@@H]1CSSC[C@H](NC(=O)CNC(=O)[C@H](Cc2ccccc2)NC(=O)[C@H](CO)NC(=O)[C@H](CCCNC(=N)N)NC(=O)[C@H](CC(C)C)NC(=O)CNC(=O)[C@H](CCC(N)=O)NC(=O)[C@H](Cc2ccccc2)NC(=O)[C@H](CC(N)=O)NC(=O)[C@H](CC(N)=O)NC(=O)[C@H](CCSC)NC(=O)[C@H](CO)NC(=O)[C@H](CCC(N)=O)NC(=O)[C@H](CCCNC(=N)N)NC(=O)[C@@H](N)Cc2ccc(O)cc2)C(=O)N[C@@H](CCCNC(=N)N)C(=O)N[C@@H](Cc2ccccc2)C(=O)NCC(=O)N[C@@H]([C@@H](C)O)C(=O)N1)[C@@H](C)O)C(C)C)C(=O)N[C@@H](Cc1ccc(O)cc1)C(=O)N[C@@H](CCC(N)=O)C(=O)N[C@@H](Cc1ccccc1)C(=O)N[C@H](C(=O)N[C@@H](CC(=O)O)C(=O)N[C@@H](CCCCN)C(=O)N[C@@H](CC(=O)O)C(=O)N[C@@H](CCCCN)C(=O)N[C@@H](CC(=O)O)C(=O)N[C@@H](CC(N)=O)C(=O)N[C@H](C(=O)N[C@@H](C)C(=O)N1CCC[C@H]1C(=O)N[C@@H](CCCNC(=N)N)C(=O)N[C@@H](CO)C(=O)N[C@@H](CCCCN)C(=O)N[C@H](C(=O)N[C@@H](CO)C(=O)N1CCC[C@H]1C(=O)N[C@@H](CCC(N)=O)C(=O)NCC(=O)N[C@@H](Cc1ccc(O)cc1)C(N)=O)[C@@H](C)CC)C(C)C)[C@@H](C)O | – | patients, biologic-resistant Crohn's disease | intravenous infusion, 15 ng/kg/min, 24 weeks, unit not given, added: biologic | relative to: baseline | change in CDAI | -78 ± 26 |
